Measurements collected from several papers.
Each line is one published result; not all experiments were run side by side. ± gives the spread as reported. Converted amounts (≈) assume the structure as drawn.
UniProt Q7KZI7, sequence (whole entry, looked up): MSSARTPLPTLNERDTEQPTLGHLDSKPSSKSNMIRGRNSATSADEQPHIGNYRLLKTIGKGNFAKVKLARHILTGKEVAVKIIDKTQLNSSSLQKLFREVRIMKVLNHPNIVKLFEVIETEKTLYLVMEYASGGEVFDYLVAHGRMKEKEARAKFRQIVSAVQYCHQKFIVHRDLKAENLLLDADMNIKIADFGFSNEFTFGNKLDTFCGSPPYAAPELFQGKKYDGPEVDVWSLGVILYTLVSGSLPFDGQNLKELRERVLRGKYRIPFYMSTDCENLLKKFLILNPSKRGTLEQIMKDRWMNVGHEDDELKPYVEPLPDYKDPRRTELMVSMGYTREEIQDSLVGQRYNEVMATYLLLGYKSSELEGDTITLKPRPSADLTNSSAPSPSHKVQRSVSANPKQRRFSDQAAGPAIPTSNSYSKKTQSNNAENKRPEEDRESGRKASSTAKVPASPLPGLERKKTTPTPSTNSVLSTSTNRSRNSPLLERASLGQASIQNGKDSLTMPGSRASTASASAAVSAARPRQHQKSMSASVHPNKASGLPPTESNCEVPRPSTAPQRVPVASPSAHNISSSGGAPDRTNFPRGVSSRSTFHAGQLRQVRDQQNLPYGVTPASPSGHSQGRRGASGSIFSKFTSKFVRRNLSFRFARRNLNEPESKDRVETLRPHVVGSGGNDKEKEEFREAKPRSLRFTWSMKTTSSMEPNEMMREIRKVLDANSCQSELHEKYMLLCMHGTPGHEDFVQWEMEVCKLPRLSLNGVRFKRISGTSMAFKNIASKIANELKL
UniProt Q5VT25, sequence (whole entry, looked up): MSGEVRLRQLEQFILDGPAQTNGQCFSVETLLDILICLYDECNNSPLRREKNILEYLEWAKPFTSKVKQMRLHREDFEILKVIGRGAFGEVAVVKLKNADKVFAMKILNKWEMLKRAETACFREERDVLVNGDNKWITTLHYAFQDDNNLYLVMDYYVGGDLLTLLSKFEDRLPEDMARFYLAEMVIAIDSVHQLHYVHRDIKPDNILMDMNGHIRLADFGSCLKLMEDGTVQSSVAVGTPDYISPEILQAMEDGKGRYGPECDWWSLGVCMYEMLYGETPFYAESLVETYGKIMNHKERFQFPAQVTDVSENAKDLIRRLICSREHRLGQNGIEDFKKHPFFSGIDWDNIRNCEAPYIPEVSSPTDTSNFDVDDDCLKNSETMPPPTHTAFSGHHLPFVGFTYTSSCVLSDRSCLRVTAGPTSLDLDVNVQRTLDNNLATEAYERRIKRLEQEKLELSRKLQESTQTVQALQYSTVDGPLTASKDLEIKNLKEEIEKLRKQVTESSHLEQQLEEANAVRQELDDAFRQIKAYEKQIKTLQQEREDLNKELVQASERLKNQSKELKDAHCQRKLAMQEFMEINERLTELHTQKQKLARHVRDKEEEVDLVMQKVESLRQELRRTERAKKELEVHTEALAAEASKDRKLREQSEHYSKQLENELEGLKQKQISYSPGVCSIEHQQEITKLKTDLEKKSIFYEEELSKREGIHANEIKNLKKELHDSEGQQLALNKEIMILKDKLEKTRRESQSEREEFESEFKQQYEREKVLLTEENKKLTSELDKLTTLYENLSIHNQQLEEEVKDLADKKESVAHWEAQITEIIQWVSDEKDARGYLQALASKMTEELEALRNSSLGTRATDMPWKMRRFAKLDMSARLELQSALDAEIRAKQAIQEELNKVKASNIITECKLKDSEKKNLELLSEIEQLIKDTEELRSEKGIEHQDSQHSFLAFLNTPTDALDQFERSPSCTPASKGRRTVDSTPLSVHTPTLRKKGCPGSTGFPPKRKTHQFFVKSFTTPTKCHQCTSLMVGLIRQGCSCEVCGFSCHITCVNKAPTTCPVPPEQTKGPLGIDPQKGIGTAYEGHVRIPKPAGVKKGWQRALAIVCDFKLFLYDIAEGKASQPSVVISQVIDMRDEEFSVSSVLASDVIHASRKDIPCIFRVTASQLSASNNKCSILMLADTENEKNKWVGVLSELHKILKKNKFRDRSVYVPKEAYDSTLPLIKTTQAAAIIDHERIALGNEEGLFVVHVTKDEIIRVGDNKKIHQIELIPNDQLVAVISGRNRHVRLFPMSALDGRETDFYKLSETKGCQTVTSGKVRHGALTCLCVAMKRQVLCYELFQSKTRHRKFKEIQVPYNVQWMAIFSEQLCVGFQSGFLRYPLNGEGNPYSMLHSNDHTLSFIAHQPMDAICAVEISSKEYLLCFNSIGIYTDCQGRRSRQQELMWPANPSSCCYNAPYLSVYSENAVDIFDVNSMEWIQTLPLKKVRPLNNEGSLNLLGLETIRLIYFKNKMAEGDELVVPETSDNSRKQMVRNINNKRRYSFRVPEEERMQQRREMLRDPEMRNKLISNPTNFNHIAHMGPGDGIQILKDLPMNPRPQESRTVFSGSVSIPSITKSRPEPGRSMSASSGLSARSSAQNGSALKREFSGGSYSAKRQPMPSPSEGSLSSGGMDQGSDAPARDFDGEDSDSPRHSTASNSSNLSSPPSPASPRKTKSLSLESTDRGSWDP
UniProt P49840, sequence (whole entry, looked up): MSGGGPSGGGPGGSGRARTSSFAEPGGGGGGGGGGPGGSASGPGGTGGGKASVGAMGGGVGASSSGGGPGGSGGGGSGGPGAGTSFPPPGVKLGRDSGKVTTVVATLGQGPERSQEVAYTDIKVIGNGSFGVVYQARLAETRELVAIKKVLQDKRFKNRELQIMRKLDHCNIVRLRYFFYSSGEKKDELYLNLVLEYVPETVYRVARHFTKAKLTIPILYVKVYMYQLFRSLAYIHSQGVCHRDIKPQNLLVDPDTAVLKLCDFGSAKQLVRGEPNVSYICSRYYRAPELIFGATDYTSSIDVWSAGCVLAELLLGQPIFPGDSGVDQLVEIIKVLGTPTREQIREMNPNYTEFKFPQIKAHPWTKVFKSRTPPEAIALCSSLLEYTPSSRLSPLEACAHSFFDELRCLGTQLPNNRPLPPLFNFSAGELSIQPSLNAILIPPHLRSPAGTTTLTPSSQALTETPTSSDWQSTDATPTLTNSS
UniProt Q86SG6, sequence (whole entry, looked up): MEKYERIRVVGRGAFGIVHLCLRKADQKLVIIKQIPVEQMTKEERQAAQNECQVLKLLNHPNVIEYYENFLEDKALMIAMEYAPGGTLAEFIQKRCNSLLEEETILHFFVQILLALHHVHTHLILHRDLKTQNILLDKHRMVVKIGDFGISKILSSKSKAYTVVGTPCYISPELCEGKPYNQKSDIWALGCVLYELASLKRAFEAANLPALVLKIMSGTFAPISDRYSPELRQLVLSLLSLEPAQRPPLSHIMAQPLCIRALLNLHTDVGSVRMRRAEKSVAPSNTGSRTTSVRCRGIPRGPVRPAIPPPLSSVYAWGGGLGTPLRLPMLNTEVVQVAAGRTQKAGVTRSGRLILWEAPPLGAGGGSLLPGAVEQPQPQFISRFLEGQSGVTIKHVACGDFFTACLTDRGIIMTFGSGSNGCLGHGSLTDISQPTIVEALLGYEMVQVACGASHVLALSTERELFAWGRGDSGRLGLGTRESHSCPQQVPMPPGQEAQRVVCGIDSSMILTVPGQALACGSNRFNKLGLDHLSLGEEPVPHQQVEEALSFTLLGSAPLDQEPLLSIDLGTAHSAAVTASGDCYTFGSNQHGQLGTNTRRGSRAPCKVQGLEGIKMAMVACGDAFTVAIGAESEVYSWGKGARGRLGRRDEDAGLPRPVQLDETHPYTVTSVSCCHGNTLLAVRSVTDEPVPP

For FC(F)(F)c1cccc(CNc2nc(NC3CCN(Cc4ccccc4)CC3)c3nc[nH]c3n2)c1, the fold change was 2.19 (Cryptococcus neoformans; mRNA level, RNA-seq, refers to: ARG2 CNAG_02802; 48 µg/mL, 3 h; relative to: untreated).
The MIC90 of CC(C)[C@H]1NC(=O)CNC(=O)[C@H](CO)NC(=O)[C@@H](Cc2c(-c3ccc(-c4ccc(-c5ccccc5)cc4)cc3)[nH]c3ccccc23)NC(=O)[C@@H](CO)NC(=O)[C@@H](C(C)C)NC(=O)[C@H](Cc2ccccc2)NC1=O is reported as 50.5 µM (Mycobacterium marinum).
The survival rate of CC1(C)C(NC(=O)C(=NOC2(C(=O)O)CC2)c2csc(N)n2)C(=O)N1OS(=O)(=O)O (stereo not drawn) is reported as 20% (Klebsiella pneumoniae; ATCC BAA-2146, NDM-1, ICR mice, systemic lethal infection; intravenous, 16 mg/kg, 7 days).
For CC[C@H](C)[C@@H]([C@@H](CC(=O)N1CCC[C@H]1[C@H](OC)[C@@H](C)C(=O)N[C@H](C)[C@@H](O)c1ccccc1)OC)N(C)C(=O)[C@@H](NC(=O)[C@H](C(C)C)N(C)C(=O)OCc1ccc(NC(=O)[C@H](CCCNC(N)=O)NC(=O)[C@@H](NC(=O)CCCCCN2C(=O)CC(SC[C@H](NC(=O)[C@H](CC(=O)O)NC(=O)[C@H](Cc3ccc(O)cc3)NC(=O)[C@H](Cc3c[nH]c4ccccc34)NC(=O)[C@@H](N)CCCNC(=N)N)C(=O)O)C2=O)C(C)C)cc1)C(C)C (stereo partly drawn), concentration read “not detected” (C57BL/6 mouse, healthy, kidney; intraperitoneal, 2.5 mg/kg, 1 h).
COc1ccccc1-c1n[nH]c2nc(N[C@H]3CC[C@H](NS(=O)(=O)CC(C)C)CC3)ncc12 has a relative abundance of 1.11 (bead binding, competition bead pull-down, refers to: LINJ.34.3890; Leishmania donovani extract; 10 µM; relative to: vehicle).
C=CCN1C(=O)C(CC=C)(C(=O)OCC)Oc2cc(F)ccc21 (stereo not drawn) — result for “fresh weight inhibition”: 42.2 ± 1.06% (Setaria viridis; greenhouse; postemergence, 150 g ai/ha, 21 days).
For CC(C)[C@H]1NC(=O)[C@H](Cc2c[nH]c3ccccc23)NC(=O)[C@@H](C(C)C)NC(=O)[C@@H](C)NC(=O)[C@H](CO)NC(=O)[C@@H](Cc2c(-c3ccc(-c4ccc5ccccc5c4)cc3)[nH]c3ccccc23)NC(=O)[C@@H](CO)NC1=O, the MIC90 was 49.1 µM (Mycobacterium marinum).
For CCCCCCCCCC(=O)OCCSC[C@H](N)C(=O)N[C@H](CCN)C(=O)N[C@@H](CCN)C(=O)N[C@@H](CCN)C(=O)N[C@@H](CC(C)C)C(=O)N[C@H](Cc1ccccc1)C(=O)N[C@@H](CCN)C(=O)N[C@@H](CCN)C(=O)N[C@@H](CC(C)C)C(N)=O, the MBC was 32 µM (≈ 38.2 µg/mL) (Acinetobacter calcoaceticus; BHI agar spot plating; 24 h, 37 °C).
With CN(C)c1nc(NCc2ccc(F)cc2)c(/N=N/c2ccc(Cl)cc2)c(N(C)C)n1 the mortality was 55.3 ± 5.8% (Ostrinia furnacalis; leaf dipping; 50 mg/L, 96 h).
COc1ccc(C2=[N+]([O-])c3ccccc3N3CC(C)(C)CN=C23)cc1 gave an MIC90 of 8 µg/mL (Clostridioides difficile; microbial growth).
CN(C)c1nc(NCc2ccc(F)c(C(F)(F)F)c2)c(/N=N/c2ccc(Cl)cc2)c(N(C)C)n1 gave a mortality of 93.3 ± 5.8% (Ostrinia furnacalis; leaf dipping; 200 mg/L, 96 h).
COc1ccccc1-c1n[nH]c2nc(NC3CCN(C(=O)Cc4ccc(F)cc4F)CC3)ncc12 has a relative abundance of 0.9 (bead binding, competition bead pull-down, refers to: LINJ.22.0180; Leishmania donovani extract; 10 µM; relative to: vehicle).
CC[C@H](C)CCCCC(=O)N[C@@H](CCN)C(=O)N[C@H](C(=O)N[C@@H](CCN)C(=O)N[C@H]1CCNC(=O)[C@H]([C@@H](C)O)NC(=O)[C@H](CCN)NC(=O)[C@H](CCN)NC(=O)[C@H](CC(C)C)NC(=O)[C@@H](CC(C)C)NC(=O)[C@H](CCN)NC1=O)[C@@H](C)O: “MIC fold change” 1 (Escherichia coli; daily serial passaging; ATCC 8739; highest sub-MIC, 1 days; relative to: initial MIC).
CC1COC2=C1C(=O)C(=O)c1c2ccc2c1C(OC(=O)CNC(=O)C(N)CCC(=O)O)CCC2(C)C (mixture of isomers): “inhibition zone diameter” 17.3 ± 0.8 mm (Cutibacterium acnes; 10 µmol/mL, 48 h, anaerobic, 10 µL on 6 mm disc).
With CC[C@H](C)[C@H](NC(=O)[C@H](CO)NC(=O)[C@H](Cc1ccc(O)cc1)NC(=O)[C@H](Cc1ccc(O)cc1)NC(=O)[C@H](CC(N)=O)NC(=O)CNC(=O)[C@H](CO)NC(=O)[C@H](Cc1ccc(O)cc1)NC(=O)[C@H](CO)NC(=O)[C@H](CO)NC(=O)[C@H](CC(N)=O)NC(=O)COCCOCCNC(=O)CN1CCN(CC(=O)O)CCN(CC(=O)O)CCN(CC(=O)O)CC1)C(=O)N[C@@H](CC(C)C)C(N)=O [copper-64 labelled] the tissue uptake was 10.1 %ID/mL (dynamic PET; KPC mouse Ptf1a-CreER tdTomato, metastases; intravenous, 4.6 MBq/mouse, 0.6 min, 84 d after tamoxifen).
CC[C@H](C)[C@@H]1NC(=O)[C@H](CO)NC(=O)C(C)(CCCCN)NC(=O)[C@@H]2CSSC[C@@H](C(=O)N[C@@H](Cc3ccc(O)cc3)C(N)=O)NC(=O)[C@H](CCCCN)NC(=O)[C@@H]3CSSC[C@H](NC(=O)[C@H](CCCNC(=N)N)NC(=O)C(C)(CC(C)C)NC(=O)[C@H](CC(=O)O)NC(=O)[C@H](CC(=O)O)NC(=O)[C@H](CCC(=O)O)NC(=O)[C@H](CC(N)=O)NC(=O)[C@H](Cc4c[nH]c5ccccc45)NC(=O)C(C)(CC)NC(=O)CNC(=O)[C@H](CC(N)=O)NC(=O)[C@@H](NC(=O)CNC(=O)[C@H](Cc4ccccc4)NC(=O)CN)CSSC[C@H](NC(=O)[C@H](Cc4ccc(O)cc4)NC(=O)CNC(=O)CNC(=O)[C@H](CCCCN)NC(=O)[C@H](Cc4ccc(O)cc4)NC(=O)[C@H]4CCCN4C(=O)[C@@H]4CCCN4C1=O)C(=O)N[C@@H](C)C(=O)N[C@@H](CCCCN)C(=O)N1CCC[C@@H]1C(=O)NCC(=O)N[C@@H](Cc1ccccc1)C(=O)N[C@@H](C(C)C)C(=O)N3)C(=O)N[C@@H](Cc1c[nH]cn1)C(=O)NC(C)(C)C(=O)N[C@@H](Cc1c[nH]cn1)C(=O)N2 (stereo partly drawn) gave an MBC of 2 µM (≈ 8.92 µg/mL) (Streptococcus pneumoniae; BS-444; 24 h, 37 °C, 99.9% killing).
CS(C)(=O)=Nc1ccc(-c2ccc(-c3nc4cc(O[C@@H]5CO[C@H]6[C@@H]5OC[C@H]6O)[nH]c4cc3F)cc2)cc1 gave an inhibition of -18% (Serine/threonine-protein kinase MRCK alpha (CDC42BPA, Homo sapiens, UniProt Q5VT25); enzyme activity, inhibitor; 10 µM).
For NCCO.O=C(O)C(Cl)Cl, the inhibition was 0% (Solanum nigrum; herbicidal activity; 15 mg/mL, 21 days, post-emergence greenhouse).
CC(=O)CCC1C(=O)NC(C(C)C)C(=O)NC(Cc2cc(O)cc(F)c2)C(=O)N2CCCC(N2)C(=O)OC(C(C)=CC=CC(=O)N2CCCCO2)CC=CC=CC(O)C(C)C1O (stereo not drawn) has an EC50 of 12 ± 2 nM (Hepatitis C virus; viral replication; Huh7, Con1 replicon; 20% fetal bovine serum).
For CC(C)[C@H]1NC(=O)[C@H](Cc2ccccc2)NC(=O)[C@@H](C(C)C)NC(=O)[C@@H](Cc2c[nH]c3ccccc23)NC(=O)[C@H](CO)NC(=O)[C@@H](Cc2c(-c3ccc(-c4ccc5ccccc5c4)cc3)[nH]c3ccccc23)NC(=O)[C@@H](CO)NC1=O, the MIC90 was 50 µM (Mycobacterium marinum).
CC(C)[C@H]1NC(=O)C[C@H]2/C=C/CCSSC[C@@H](NC1=O)C(=O)N[C@H](Cc1cccc3ccccc13)C(=O)NCC(=O)O2 gave an inhibition of -0.3% (Serine/threonine-protein kinase MARK2 (MARK2, Homo sapiens, UniProt Q7KZI7); enzyme activity, inhibitor; 10 µM).
The inhibition of CN(C)[C@H]1C[C@@]23CC[C@@]4(O2)C(=CC[C@]2(C)[C@@H](c5ccc6ccncc6c5)CC[C@H]24)C=C3[C@@H](O)[C@@H]1O is reported as 9.6% (Serine/threonine-protein kinase Nek8 (NEK8, Homo sapiens, UniProt Q86SG6); ATP probe labelling, inhibitor, KiNativ profiling; 1 µM).
The survival of Cc1cc(C(=O)Nc2nc3cccc(C)c3n2[C@H]2CCCCN(C(=O)/C=C/CN(C)C)C2)ccn1 is reported as 83.3% (Trypanosoma brucei; STIB795, mouse acute HAT model; oral, 2.5 mg/kg once daily for 4 days, day 5; relative to: mice).
Fc1cccc(COc2ccc(Nc3ncnc4ccc(-c5ccc(N6CCOCC6)cc5)cc34)cc2Cl)c1 gave an inhibition of 10% (Trypanosoma cruzi; intracellular amastigote growth, β-galactosidase CPRG; 3T3, Tulahuen, β-galactosidase-expressing; 10 µM, 96 h).
For Cc1cc(Cl)cc(S(C)(=O)=NC#N)c1NC(=O)c1cc(Br)nn1-c1ncccc1Cl (stereo not drawn), the mortality was 3.3% (Spodoptera litura; leaf-dip; third instar larvae; 50 ppm, 48 h).
With O=c1n(CCNCCOS(=O)(=O)c2ccccc2)c(=O)n(S(=O)(=O)c2ccccc2)c(=O)n1S(=O)(=O)c1ccccc1 the MLC was 64 ± 6 µg/mL (Candida tropicalis; broth microdilution).
CC(C)(C)C(=O)OCOP(=O)(OCOC(=O)C(C)(C)C)C1CCCN(O)C1=O (stereo not drawn) has a TGI of 7.87 µM (SR).
O=C1NC(=O)c2c1c1cc(F)c[n+]3c1c1c2c2cc(O)ccc2[n]1[Ru-4]312([N]=C=S)[S+]3CC[S+]1CC[S+]2CC3 (stereo not drawn) gave a remaining activity of 20% (Glycogen synthase kinase-3 alpha (GSK3A, Homo sapiens, UniProt P49840); enzyme activity; 100 nM, human enzyme, with: 10 µM ATP; relative to: untreated).
O=C1NC2(CC2)COc2ncc(F)cc2[C@H]2COCCN2c2ccn3ncc1c3n2 gave a serum sodium of 145 ± 2 mmol/L (Sprague-Dawley rat, male, serum; oral, 10 mg/kg/day, end of recovery, 4-week subacute toxicity).
CC(C)C[C@H](NC(=O)[C@@H](N)CO)C(=O)N[C@@H](Cc1c[nH]c2ccccc12)C(=O)N[C@@H](CCC(=O)O)C(=O)N[C@@H](CC(N)=O)C(=O)N[C@@H](Cc1ccccc1)C(=O)N[C@@H](CCCCN)C(=O)N[C@@H](CC(N)=O)C(=O)N[C@@H](C)C(=O)NCC(=O)N[C@@H](CCCCN)C(=O)N[C@@H](CCCCN)C(N)=O — result for “geometric mean MIC”: 256 µM (Gram-positive bacteria).
